Measurements of several laboratories.
MAPK14: Mitogen-activated protein kinase 14 (MAPK14, Homo sapiens, UniProt Q16539)
Chain of UniProt Q16539 (whole entry, unmodified, looked up): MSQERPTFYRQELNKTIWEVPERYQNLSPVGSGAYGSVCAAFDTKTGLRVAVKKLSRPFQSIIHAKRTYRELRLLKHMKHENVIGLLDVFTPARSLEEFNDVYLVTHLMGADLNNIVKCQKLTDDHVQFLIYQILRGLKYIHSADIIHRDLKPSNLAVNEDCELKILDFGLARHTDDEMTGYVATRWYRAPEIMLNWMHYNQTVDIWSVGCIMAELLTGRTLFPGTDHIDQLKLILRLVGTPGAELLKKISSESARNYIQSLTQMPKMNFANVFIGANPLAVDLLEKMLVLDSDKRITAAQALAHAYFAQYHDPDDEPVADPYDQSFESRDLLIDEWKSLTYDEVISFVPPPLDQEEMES
MAPK14 T106M: Mitogen-activated protein kinase 14 (MAPK14, Homo sapiens, UniProt Q16539, T106M)

Structure (SMILES) | target | test | system | conditions | scale | endpoint | value
CCOC(=O)[C@@H]1Cc2c(cc([N+](=O)[O-])cc2[N+](=O)[O-])[C@H](O)[C@]12C(=O)Nc1ccc(Br)cc12 | MAPK14 | KINOMEscan | – | 100 nM | relative to: DMSO control | remaining binding | 95%
CS(C)(=O)=Nc1ccc(-c2ccc(-c3nc4cc(O[C@@H]5CO[C@H]6[C@@H]5OC[C@H]6O)[nH]c4cc3F)cc2)cc1 | MAPK14 T106M | enzyme activity, inhibitor | – | 10 µM | – | inhibition | -13%
N[C@H](C(=O)N1CCCC1)C1CCN(c2nccc3c(-c4ncc(Cl)cc4Cl)cccc23)CC1 | MAPK14 | enzyme activity, inhibitor | – | 10 µM | – | inhibition | 31%
CN(C)[C@H]1C[C@@]23CC[C@@]4(O2)C(=CC[C@]2(C)[C@@H](c5ccc6ccncc6c5)CC[C@H]24)C=C3[C@@H](O)[C@@H]1O | MAPK14 | probe labelling, inhibitor, KiNativ ATP probe MS | native lysate | 0.1 µM | – | inhibition | 4.5%
[CH3][Ti+2][O]C(=O)c1ccc([S][Au][PH](c2ccccc2)(c2ccccc2)c2ccccc2)cc1.c1cc[cH-]c1.c1cc[cH-]c1 | MAPK14 | kinase activity, HotSpot kinase | – | 1 µM, with: ATP 10 µM | – | remaining activity | 119%
Nc1ccc(/C=C/C(=O)N2CCc3c(oc4c(-c5ccc(F)cc5)cc(-c5ccc(C(=O)N6CCC(F)(F)CC6)cn5)cc34)C2)cn1 | MAPK14 | binding, competition with immobilised ligand | – | 1 µM | – | remaining binding | 95%
C[C@H](NCc1ccc(-c2ccc(C(F)(F)F)cc2)cc1)C(N)=O | MAPK14 | cell-free assay, competition with immobilised ligand | – | 1 µM | – | inhibition | 3%
O=C(CN1CN(c2ccccc2)C2(CCN(C(=O)c3cnc4[nH]ncc4c3)CC2)C1=O)NCC(F)(F)F | MAPK14 | inhibitor | – | concentration not given | – | inhibition | < 50%
O=C1NC(=O)c2c1c1cc(F)c[n+]3c1c1c2c2cc(O)ccc2[n]1[Ru-4]312([N]=C=S)[S+]3CC[S+]1CC[S+]2CC3 (stereo not shown) | MAPK14 T106M | enzyme activity | – | 100 nM, human enzyme, with: 10 µM ATP | relative to: untreated | remaining activity | 101%
CC(C)[C@H]1NC(=O)C[C@H]2/C=C/CCSSC[C@@H](NC1=O)C(=O)N[C@H](Cc1cccc3ccccc13)C(=O)NCC(=O)O2 | MAPK14 | enzyme activity, inhibitor | – | 10 µM | – | inhibition | 5%

Repeated from above:
Structure (SMILES) | target | test | system | conditions | scale | endpoint | value
O=C1NC(=O)c2c1c1cc(F)c[n+]3c1c1c2c2cc(O)ccc2[n]1[Ru-4]312([N]=C=S)[S+]3CC[S+]1CC[S+]2CC3 (stereo not shown) | MAPK14 T106M | enzyme activity | – | 100 nM, human enzyme, with: 10 µM ATP | relative to: untreated | remaining activity | 101%
